Experimental data pooled from the literature.
Compare with care: the assays were run in different laboratories. Numbers after ± are the reported error.
Succinate dehydrogenase complex: Succinate dehydrogenase complex (Sus scrofa, UniProt A5GZW8+D0VWV4+Q007T0+Q0QF01)
Chain of UniProt A5GZW8 (whole entry, looked up): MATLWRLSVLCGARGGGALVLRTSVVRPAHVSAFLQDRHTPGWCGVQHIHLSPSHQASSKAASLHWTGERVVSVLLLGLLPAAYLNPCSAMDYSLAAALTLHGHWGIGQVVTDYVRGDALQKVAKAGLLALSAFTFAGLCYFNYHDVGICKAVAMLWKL
Chain of UniProt D0VWV4 (whole entry, looked up): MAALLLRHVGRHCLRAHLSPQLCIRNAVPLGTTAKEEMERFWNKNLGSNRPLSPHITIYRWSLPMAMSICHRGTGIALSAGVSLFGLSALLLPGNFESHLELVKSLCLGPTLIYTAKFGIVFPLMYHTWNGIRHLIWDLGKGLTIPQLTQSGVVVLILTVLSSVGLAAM
Chain of UniProt Q007T0 (whole entry, looked up): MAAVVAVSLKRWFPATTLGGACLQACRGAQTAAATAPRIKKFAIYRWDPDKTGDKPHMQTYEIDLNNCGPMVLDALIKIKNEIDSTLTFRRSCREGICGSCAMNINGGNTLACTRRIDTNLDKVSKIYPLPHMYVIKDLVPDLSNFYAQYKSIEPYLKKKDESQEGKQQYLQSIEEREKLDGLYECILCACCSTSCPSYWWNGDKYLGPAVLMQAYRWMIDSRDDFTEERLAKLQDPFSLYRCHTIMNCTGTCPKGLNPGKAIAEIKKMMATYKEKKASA
Chain of UniProt Q0QF01 (whole entry, looked up): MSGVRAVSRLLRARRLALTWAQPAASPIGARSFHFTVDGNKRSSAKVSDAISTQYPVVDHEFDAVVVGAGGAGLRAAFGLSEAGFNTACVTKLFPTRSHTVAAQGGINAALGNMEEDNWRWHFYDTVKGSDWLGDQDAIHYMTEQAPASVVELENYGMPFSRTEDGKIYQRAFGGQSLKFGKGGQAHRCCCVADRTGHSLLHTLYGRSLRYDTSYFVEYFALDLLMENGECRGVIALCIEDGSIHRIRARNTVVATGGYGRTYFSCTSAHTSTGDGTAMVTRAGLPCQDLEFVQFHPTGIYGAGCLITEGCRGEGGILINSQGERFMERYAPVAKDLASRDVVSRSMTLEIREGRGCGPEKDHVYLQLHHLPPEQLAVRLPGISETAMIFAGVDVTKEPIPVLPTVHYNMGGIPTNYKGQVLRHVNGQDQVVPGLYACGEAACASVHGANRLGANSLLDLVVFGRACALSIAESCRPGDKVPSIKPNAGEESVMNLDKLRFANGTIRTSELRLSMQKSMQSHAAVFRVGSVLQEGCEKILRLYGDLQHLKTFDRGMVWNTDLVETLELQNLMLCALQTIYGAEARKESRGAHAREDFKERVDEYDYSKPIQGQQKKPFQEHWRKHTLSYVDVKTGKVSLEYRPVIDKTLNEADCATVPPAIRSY
GSTO1: Glutathione S-transferase omega-1 (GSTO1, Homo sapiens, UniProt P78417)
Chain of UniProt P78417 (whole entry, looked up): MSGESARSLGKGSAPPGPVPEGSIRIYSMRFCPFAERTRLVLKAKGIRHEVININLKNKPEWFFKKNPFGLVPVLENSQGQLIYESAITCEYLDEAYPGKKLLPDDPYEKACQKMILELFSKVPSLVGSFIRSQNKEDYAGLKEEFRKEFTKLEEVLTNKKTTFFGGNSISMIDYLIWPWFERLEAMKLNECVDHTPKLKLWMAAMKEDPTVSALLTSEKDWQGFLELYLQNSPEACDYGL
GLO1: Lactoylglutathione lyase (GLO1, Homo sapiens, UniProt Q04760)
Chain of UniProt Q04760 (whole entry, looked up): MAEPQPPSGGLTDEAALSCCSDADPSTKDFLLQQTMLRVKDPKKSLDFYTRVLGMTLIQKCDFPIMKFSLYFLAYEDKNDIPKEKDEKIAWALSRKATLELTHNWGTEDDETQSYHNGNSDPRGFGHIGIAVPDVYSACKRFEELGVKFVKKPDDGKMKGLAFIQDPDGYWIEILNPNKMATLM
HTR2B: 5-hydroxytryptamine receptor 2B (HTR2B, Homo sapiens, UniProt P41595)
Chain of UniProt P41595 (whole entry, looked up): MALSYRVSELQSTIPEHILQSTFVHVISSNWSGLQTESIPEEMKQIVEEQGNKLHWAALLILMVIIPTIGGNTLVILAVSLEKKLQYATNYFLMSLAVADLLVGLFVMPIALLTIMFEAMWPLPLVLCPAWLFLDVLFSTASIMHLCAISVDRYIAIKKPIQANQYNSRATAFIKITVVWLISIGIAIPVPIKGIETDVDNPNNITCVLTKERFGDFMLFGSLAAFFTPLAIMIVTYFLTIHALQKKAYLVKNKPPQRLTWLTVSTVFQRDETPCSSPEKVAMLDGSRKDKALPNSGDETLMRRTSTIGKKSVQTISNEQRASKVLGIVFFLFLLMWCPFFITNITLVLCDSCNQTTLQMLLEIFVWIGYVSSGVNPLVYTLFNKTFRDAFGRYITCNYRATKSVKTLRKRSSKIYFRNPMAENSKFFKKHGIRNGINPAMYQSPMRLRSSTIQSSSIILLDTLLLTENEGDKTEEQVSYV
FLT3 ITD: Receptor-type tyrosine-protein kinase FLT3 (FLT3, Homo sapiens, UniProt P36888, ITD)
AGER: Advanced glycosylation end product-specific receptor (AGER, Homo sapiens, UniProt Q15109)
Chain of UniProt Q15109 (whole entry, looked up): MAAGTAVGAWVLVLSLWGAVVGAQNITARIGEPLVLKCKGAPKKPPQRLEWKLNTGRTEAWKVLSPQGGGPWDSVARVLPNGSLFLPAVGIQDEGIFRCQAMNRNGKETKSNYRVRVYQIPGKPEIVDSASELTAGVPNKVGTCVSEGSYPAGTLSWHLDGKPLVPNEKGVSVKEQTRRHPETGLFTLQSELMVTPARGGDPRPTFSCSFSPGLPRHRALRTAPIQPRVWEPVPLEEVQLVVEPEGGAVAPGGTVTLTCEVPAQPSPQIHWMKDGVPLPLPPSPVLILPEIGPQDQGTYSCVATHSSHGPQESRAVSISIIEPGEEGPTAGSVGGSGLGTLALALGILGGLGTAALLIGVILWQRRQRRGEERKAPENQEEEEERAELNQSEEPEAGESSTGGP
PRMT1: Protein arginine N-methyltransferase 1 (PRMT1, Homo sapiens, UniProt Q99873)
Chain of UniProt Q99873 (whole entry, looked up): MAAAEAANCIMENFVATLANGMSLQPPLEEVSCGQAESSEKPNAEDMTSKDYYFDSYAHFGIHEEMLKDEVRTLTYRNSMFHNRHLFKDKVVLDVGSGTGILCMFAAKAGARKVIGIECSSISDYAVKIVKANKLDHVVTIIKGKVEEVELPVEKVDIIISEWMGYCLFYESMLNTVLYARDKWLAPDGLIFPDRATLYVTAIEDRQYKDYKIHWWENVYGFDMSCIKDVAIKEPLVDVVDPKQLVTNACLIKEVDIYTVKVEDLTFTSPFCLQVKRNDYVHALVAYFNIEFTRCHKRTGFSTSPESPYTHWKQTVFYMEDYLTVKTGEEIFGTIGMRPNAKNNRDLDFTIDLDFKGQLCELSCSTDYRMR
lecA: PA-I galactophilic lectin (lecA, Pseudomonas aeruginosa, UniProt Q05097)
Chain of UniProt Q05097 (whole entry, looked up): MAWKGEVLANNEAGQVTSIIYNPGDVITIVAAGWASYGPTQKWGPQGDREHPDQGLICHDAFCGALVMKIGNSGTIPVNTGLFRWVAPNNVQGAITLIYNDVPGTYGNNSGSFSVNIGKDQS
Chain of UniProt Q9Y3R4 (whole entry, looked up): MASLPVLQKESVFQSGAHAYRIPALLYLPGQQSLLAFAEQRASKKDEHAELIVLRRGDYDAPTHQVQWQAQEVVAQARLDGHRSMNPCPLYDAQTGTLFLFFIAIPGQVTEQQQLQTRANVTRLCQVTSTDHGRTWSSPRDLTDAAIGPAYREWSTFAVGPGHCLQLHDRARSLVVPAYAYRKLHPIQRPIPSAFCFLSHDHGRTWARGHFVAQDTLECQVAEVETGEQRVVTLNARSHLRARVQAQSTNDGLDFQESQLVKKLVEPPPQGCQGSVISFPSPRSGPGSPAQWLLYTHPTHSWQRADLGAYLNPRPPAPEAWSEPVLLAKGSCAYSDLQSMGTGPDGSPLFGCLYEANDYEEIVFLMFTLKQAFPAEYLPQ
Chain of UniProt P45984 (whole entry, looked up): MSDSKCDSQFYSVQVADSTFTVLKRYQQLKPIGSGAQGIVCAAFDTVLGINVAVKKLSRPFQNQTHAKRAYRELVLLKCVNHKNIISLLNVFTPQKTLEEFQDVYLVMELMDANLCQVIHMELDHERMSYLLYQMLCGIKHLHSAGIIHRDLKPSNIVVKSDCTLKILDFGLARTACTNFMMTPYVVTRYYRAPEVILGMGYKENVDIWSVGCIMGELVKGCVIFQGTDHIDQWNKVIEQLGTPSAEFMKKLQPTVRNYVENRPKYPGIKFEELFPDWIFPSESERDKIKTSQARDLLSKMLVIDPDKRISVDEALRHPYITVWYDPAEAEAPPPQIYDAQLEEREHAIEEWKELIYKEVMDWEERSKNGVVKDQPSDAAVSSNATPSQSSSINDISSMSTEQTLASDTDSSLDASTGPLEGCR

SMILES | target | test | test system | conditions | scale | inhibition
COc1ncccc1C(=O)Nc1ccccc1Nc1ccccc1 | Succinate dehydrogenase complex | enzyme activity, double-antibody sandwich ELISA | – | 8 µM | – | 53.6%
O=C(CCl)N(CCNC(=O)C(F)(F)F)c1ccc(Cl)cc1 | GSTO1 | probe labelling, gel-based competitive ABPP | MDA-MB-435 soluble proteome | 100 nM, added: SE-Rh probe | – | 95%
COC(=O)CCSc1nc2n(n1)C(c1cccc(OC)c1)C(C(=O)Nc1cncc(C)c1)=C(C)N2 (centres unmarked) | Serine/threonine-protein kinase mTOR (MTOR, Homo sapiens, UniProt P42345) | enzyme activity, inhibitor, TR-FRET | – | 30 nM | – | 67.2%
Oc1cc(O)c2c(c1)O[C@H](c1cc(O)c(O)c(O)c1)[C@@H](O)C2 (racemic) | maltase, rat | enzyme activity, inhibitor | rat intestinal brush border vesicles | 10 µM | – | 78.5%
O=C(Nc1ccccc1Nc1ccccc1)c1cccnc1F | Succinate dehydrogenase complex | enzyme activity, double-antibody sandwich ELISA | – | 1 µM | – | 6.41%
Nc1cccc2ccc(O)c(/N=N/c3ccc(S(N)(=O)=O)cc3)c12 | GLO1 | enzyme activity, inhibitor | – | 25 µM | – | 57.3%
O=C(NC1CCCCC1)C(c1cccnc1)N(C(=O)CCl)c1ccc(F)cc1 (racemic) | GSTO1 | probe labelling, gel-based competitive ABPP | MDA-MB-435 soluble proteome | 1000 nM, added: SE-Rh probe | – | 100%
Brc1ccccc1-c1nnc(CSc2nnnn2-c2ccccc2)o1 | HTR2B | ligand displacement, radioligand | – | 10 µM | – | 67%
COc1cc(C(=O)NC2CCC(N3CCN(CC4CCC5(CCCC5)C4)CC3)CC2)c(F)cc1Nc1ncc2c(n1)N(C1CCCC1(F)F)CC(F)(F)C(=O)N2C (centres unmarked) | Ephrin type-A receptor 6 (EPHA6, Homo sapiens, UniProt Q9UF33) | cell-free assay, TR-FRET | – | 10 µM | – | 4.17%
CCC(=O)N(C)c1ccc(Cl)c(Cl)c1 | HTR2B | ligand displacement, radioligand | – | 10 µM | – | 23%
FC(F)(F)c1n[nH]cc1-c1nc2ccc3[nH]ncc3c2c2c1CCCCC2 | FLT3 ITD | enzyme activity, inhibitor, ADP detection | – | 0.1 µM | – | 87%
COc1ccc(N(CCNC(=O)C(F)(F)F)C(=O)CCl)cc1 | GSTO1 | probe labelling, gel-based competitive ABPP | MDA-MB-435 soluble proteome | 100 nM, added: SE-Rh probe | – | 20%
CC[C@H](C)[C@H](NC(=O)[C@H]([C@@H](C)CC)N(C)C(C)=O)C(=O)N[C@H](C(=O)N[C@@H](CC(C)C)C(=O)[C@@]1(C)CO1)[C@@H](C)O | Proteasome subunit beta type-5 (Babesia divergens, UniProt A0AAD9GDK3) | proteasome activity | Babesia divergens, parasite lysate | 1 µM, added: Suc-LLVY-AMC substrate | – | > 90%
COc1ccc(S(=O)(=O)Nc2ccc(NS(=O)(=O)c3ccc(OC)cc3)c3ccccc23)cc1 | Kelch-like ECH-associated protein 1, Kelch domain (KEAP1, Homo sapiens, UniProt Q14145) | Keap1-Nrf2 interaction, inhibitor, fluorescence polarisation | – | 50 µM | – | 97%
COc1cc(N(C(=O)c2cc3ccc(Cl)cc3s2)c2cc(OC)c(OC)c(OC)c2)cc(OC)c1OC | AGER | binding to AGE-BSA, competitive ELISA | – | 100 µM, 60 min | – | 0%
O=C(Nc1ccccc1Nc1ccccc1)c1nccnc1Cl | Succinate dehydrogenase complex | enzyme activity, double-antibody sandwich ELISA | – | 2 µM | – | 21.9%
O=C(CCl)N(CCNC(=O)C(F)(F)F)c1ccc([N+](=O)[O-])cc1 | GSTO1 | competitive ABPP | MDA-MB-435 | 1 µM, 12 h, 10% serum | – | 65%
O=C(Nc1cc(Cl)ccc1O)c1nn2c(C(F)(F)F)cc(-c3cc(Br)cs3)nc2c1Br | Hepatitis A virus cellular receptor 2, part CEACAM1 interaction (Homo sapiens, UniProt Q8TDQ0) | CEACAM1 binding, competitive ELISA | – | 2.5 µM | – | inhibited
COc1cc(C(=O)O[C@@H]2Cc3c(O)cc(O)cc3O[C@@H]2c2ccc(O)c(O)c2)cc(O)c1O | maltase, rat | enzyme activity, inhibitor | rat intestinal brush border vesicles | 10 µM | – | 68.7%
COc1cc(OC2CCN(C)CC2)ccc1Nc1ncc2c(n1)n(C1CCCC1)c(=O)n2C | Mitogen-activated protein kinase 9 (MAPK9, Homo sapiens, UniProt P45984) | enzyme activity, inhibitor | – | 1 µM | – | > 40%
O=C(O)c1c(O)c(/N=N/c2ccccc2)cc2ccccc12 | GLO1 | enzyme activity, inhibitor | – | 25 µM | – | 75.1%
CC[C@H](C)[C@H](NC(=O)[C@H](CCCNC(=N)N)NC(=O)[C@H](CCCCN)NC(=O)[C@@H]1CCCN1C(=O)[C@H](CO)n1cc(CN(CC[C@H](N)C(=O)O)C[C@H]2O[C@@H](n3cnc4c(N)ncnc43)[C@H](O)[C@@H]2O)nn1)C(=O)N[C@@H](C)C(N)=O | PRMT1 | enzyme activity, inhibitor, fluorescence | – | 50 µM | – | < 15%

SMILES | target | test | test system | conditions | scale | inhibition
O=C(O[C@H]1Cc2c(O)cc(O)cc2O[C@@H]1c1ccc(O)cc1)c1cc(O)c(O)c(O)c1 | maltase, rat | enzyme activity, inhibitor | rat intestinal brush border vesicles | 10 µM | – | 91.8%
O=C(Nc1ccccc1Nc1ccccc1)c1cccnc1Br | Succinate dehydrogenase complex | enzyme activity, double-antibody sandwich ELISA | – | 1 µM | – | 25.4%
Nc1nc2cc(CC[C@H]3C[C@@H](n4ccc5c(N)ncnc54)[C@H](O)[C@@H]3O)ccc2cc1Br | PRMT1 | enzyme activity, inhibitor | – | 10 µM | – | < 15%
CC(=O)Nc1cc(COc2c(Cl)cc(CC(N)C(=O)O)cc2Cl)c2oc(-c3ccccc3)nc2c1 (centres unmarked) | Large neutral amino acids transporter small subunit 1 (SLC7A5, Homo sapiens, UniProt Q01650) | L-[14C]leucine uptake, inhibitor | Xenopus laevis oocytes expressing SLC7A5 | 10 µM, 30 min, Na+-free, added: 50 µM L-[14C]leucine | – | inhibited
O=C(Nc1ccccc1)c1cc2ccc(Cl)cc2s1 | AGER | binding to AGE-BSA, competitive ELISA | – | 100 µM, 60 min | – | 0%
CN(C)S(=O)(=O)c1cc(C(=O)O)ccc1NCCCCCCCC(F)(F)F | Solute carrier family 12 member 5 (SLC12A5, Homo sapiens, UniProt Q9H2X9) | thallium influx | HEK293 transfected with SLC12A5 | 10 µM | reference: DMSO control | 4.6 ± 6.9%
O=C(c1ccc(O)c(O)c1)c1ccc(O)cc1O | lecA | ligand displacement, FP | – | 4 mM | – | 13%
O=C(NCc1ccccc1)c1cc2ccc(Cl)cc2s1 | AGER | binding to AGE-BSA, competitive ELISA | – | 100 µM, 60 min | – | 25%
NC(CNC(CNC(CC(=O)O)C(=O)O)C(=O)O)C(=O)O (centres unmarked) | IMP-7 metallo-beta-lactamase | – | – | 0.5 mM, Zn-depleted buffer, extended incubation | – | ~70%
CC(=O)C12NC(C)(C)CC1(C)C(=O)C1=C2c2c(c3c4n2C(C)(C)CC2=C4C4(CC(C)(C)NC(C)(C4)C2=O)CC3(C)C)C(=O)C(C)(C)N1 (single isomer, unassigned; (-)) | Sodium channel protein type 10 subunit alpha (SCN10A, Homo sapiens, UniProt Q9Y5Y9) | sodium current, whole-cell patch clamp | HEK293T | 10 µM | – | 20 to 50%
O=C(Nc1ccc(Oc2ccc(Cl)cc2)cc1)c1cc2ccc(Cl)cc2s1 | AGER | binding to AGE-BSA, competitive ELISA | – | 100 µM, 60 min | – | ≤ 77%
FC(F)(F)c1n[nH]cc1-c1nc2ccc3[nH]ncc3c2c2c1CC2 | FLT3 ITD | enzyme activity, inhibitor, ADP detection | – | 0.1 µM | – | 21%
NS(=O)(=O)c1ccc(/N=N/c2c(O)ccc3ccccc23)cc1 | GLO1 | enzyme activity, inhibitor | – | 25 µM | – | 72.5%
COc1ccc(N2C(=O)CSC2c2cccc(Br)c2)c(OC)c1 (centres unmarked) | ACTR2/ACTR3 (Bos taurus, UniProt A7MB62+P61157) | actin polymerization rate, pyrenyl-actin | – | concentration not given | – | inhibited
O=C(Nc1ccccc1Nc1ccccc1)c1cccnc1C(F)(F)F | Succinate dehydrogenase complex | enzyme activity, double-antibody sandwich ELISA | – | 0.5 µM | – | 16.7%
Oc1ccc(CCC(O)CC(O)CCc2ccc(O)cc2)cc1 (centres unmarked) | Amine oxidase [flavin-containing] B (Maob, Rattus norvegicus, UniProt P19643) | enzyme activity, inhibitor | – | 50 µg/mL | – | 57.2 ± 3.6%
CC(C)COC(=O)c1cc(O)c(O)c(O)c1 | lecA | ligand displacement, FP | – | 4 mM | – | 8%
O=C(NCc1ccccc1)C(c1cccnc1)N(C(=O)CCl)c1ccc(F)cc1 (racemic) | GSTO1 | probe labelling, gel-based competitive ABPP | MDA-MB-435 soluble proteome | 100 nM, added: SE-Rh probe | – | 90%
O=C(Nc1ccc(-c2ccccc2)cc1)c1cc2ccc(Cl)cc2s1 | AGER | binding to AGE-BSA, competitive ELISA | – | 100 µM, 60 min | – | 0%
CC(=O)N[C@H]1NC[C@H](C(=O)O)[C@H](O)[C@@H]1O | Sialidase-2 (Homo sapiens, UniProt Q9Y3R4) | enzyme activity, inhibitor | – | 600 µM, pH 4 | – | 64%
CC1CCc2c(c(-c3c[nH]nc3C(F)(F)F)nc3ccc4[nH]ncc4c23)C1 (centres unmarked) | FLT3 ITD | enzyme activity, inhibitor, ADP detection | – | 0.1 µM | – | 77%
CC(C)(C)CCN1C[C@@H]2[C@@H](CNC(=O)c3cc(Cl)cc(Cl)c3)[C@@H]2C1.Cl | Voltage-dependent L-type calcium channel subunit alpha-1F (Homo sapiens, UniProt O60840, T1007Y) | calcium current, whole-cell patch clamp | HEK-293T transfected | 5 µM | – | ~33%
